Measured values from different studies.
Parts stem from different laboratories: compare values within a part only. Substitutions count along the parent as printed.

Study 1
Target: CCNA2, cyclin fold, Cln2 fusion (human)
Method: yeast growth competition, sequencing
Medium: yeast
Notes: strong parent motif
Reference: not given
Direction: higher = stronger binding
Endpoint: normalised enrichment score
Starting sequence: CDKN1A docking peptide (human); SKACRRLFGPVDS
Variant = SKACRRAFGPVDS [L7A]; value = 0.355
Variant = SKACCRLFGPVDS [R5C]; value = 2.29
Variant = SKACRRLFGPVHS [D12H]; value = 5.11
Variant = SKACRRLQGPVDS [F8Q]; value = 0.0185
Variant = SKACRRLFTPVDS [G9T]; value = 5.6
Variant = SKACRRLFGTVDS [P10T]; value = 5.46
Variant = SKACRNLFGPVDS [R6N]; value = 5.76
Variant = SKACARLFGPVDS [R5A]; value = 1.03
Variant = SKACRRLFGPVSS [D12S]; value = 5.25
Variant = SKSCRRLFGPVDS [A3S]; value = 3.89
Variant = SKACRRLFGFVDS [P10F]; value = 4.33
Variant = SKACRRLWGPVDS [F8W]; value = 3.82
Variant = SKACRRLFGPVLS [D12L]; value = 4.7
Variant = SKACRRFFGPVDS [L7F]; value = 0.757
Variant = SKACRGLFGPVDS [R6G]; value = 1.76
Variant = SKACRRLKGPVDS [F8K]; value = 0.297
Variant = SGACRRLFGPVDS [K2G]; value = 5.68
Variant = SKRCRRLFGPVDS [A3R]; value = 0.893
Variant = SKACRRLFGPVPS [D12P]; value = 5.4

Study 2
Target: ABI1, truncated, D143A, DHFR fusion (Arabidopsis thaliana, UniProt P49597)
Method: DHFR PCA, dose-response
Medium: yeast
Notes: Hill fit, not affinity, not high confidence
Added: (+)-ABA, dose series
Direction: lower = more sensitive
Endpoint: ABA EC50
Starting sequence: PYL1, truncated, DHFR fusion (Arabidopsis thaliana, UniProt Q8VZS8); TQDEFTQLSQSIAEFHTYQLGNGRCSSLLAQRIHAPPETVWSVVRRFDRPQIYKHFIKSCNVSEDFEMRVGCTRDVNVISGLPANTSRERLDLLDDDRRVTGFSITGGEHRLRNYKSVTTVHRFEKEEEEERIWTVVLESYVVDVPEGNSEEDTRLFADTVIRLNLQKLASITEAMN
Variant = V40W; value = 8.69 µM
Variant = V44N; value = 20.4 µM
Variant = C60P; value = 350 µM
Variant = G81P; value = 219 µM
Variant = A158C; value = 0.524 µM
Variant = E89W; value = 2.06 µM
Variant = P83K; value = 0.311 µM
Variant = P83F; value = 430 µM
Variant = Q51Y; value = 25.7 µM
Variant = Y115P; value = 0.0201 µM
Variant = S27P; value = 65.9 µM
Variant = A84Q; value = 0.523 µM
Variant = G148I; value = 139 µM
Variant = S87P; value = 10.9 µM
Variant = E89K; value = 243 µM
Variant = F15P; value = 237 µM
Variant = R74K; value = 25.8 µM
Variant = C60K; value = 820 µM
Variant = S80W; value = 216 µM
Variant = V40M; value = 490 µM

Study 3
Target: RING finger protein unkempt homolog, zinc fingers 1-6, GST-SBP tag (UNK, Homo sapiens, UniProt Q9C0B0, residues 30-357)
Method: RNA Bind-n-Seq
Form: RNA
Medium: in vitro
Concentration: not given
Notes: RNA with constant flanks, human and mouse sites, ends assumed
Reference: input RNA pool
Direction: higher = stronger binding
Endpoint: bound/input enrichment
Shared flanks, not repeated: GGGAGUUCUACAGUCCGACGAUC … CAACAGAGGAUUGAGCAUCA
Residues (chain): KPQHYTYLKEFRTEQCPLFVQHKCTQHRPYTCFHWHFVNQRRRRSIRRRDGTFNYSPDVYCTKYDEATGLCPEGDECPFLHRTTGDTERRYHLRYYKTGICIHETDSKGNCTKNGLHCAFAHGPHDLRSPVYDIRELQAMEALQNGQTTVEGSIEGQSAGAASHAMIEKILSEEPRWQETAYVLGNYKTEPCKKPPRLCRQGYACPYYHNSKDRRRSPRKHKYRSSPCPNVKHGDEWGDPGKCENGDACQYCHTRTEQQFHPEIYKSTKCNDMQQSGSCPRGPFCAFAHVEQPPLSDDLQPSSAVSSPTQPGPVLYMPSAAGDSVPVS
Strand = AGUUCCAGCGACAGCGACUCAUCUUGUGGCUGGACUGUCAUCAAUCAUGAGGGUUCUGAUAUAGAGAUCGUGAAUUCUGCCACAGCCAGUGACAACUGUGGACUGACUCUAGAAUGUUCC; value = 0.142 ratio
Strand = UAUGAUGAGCAUAUCAAAUCCAGAUUGAUUAAAGAUAUUCGGUUUUUCAGGGAGAUCAAGGACCAAAAUGACCACAAGUAUCCUUUUGAUAGAGCAGAAAAAUUCAAUCGUGGCAUAAGA; value = 0.499 ratio
Strand = UGUUUUGUUAUUGCCUGGAUAUAUGGCGGUGAUAACUUAUAUGACGGUAUUGAGGACAUGAUUGGCUAUCGGCCUGGGCCCUGGAUGAAGUACAGCUGGGCUGUCAUCACUCCAGCUCUU; value = 0.144 ratio
Strand = GGAGCUUUACCCCCUGACCUCAGCUACAUCGUUCGAGCUAGGCAUGGUGGUGAGGACUACGUAUUUUCCCUGCUCACUGGCUACUGUGAGCCCCCCACUGGGGUGUCAUUGCGAGAAGGC; value = 0.0792 ratio
Strand = CGGCGGCUGGGUGAGGGCUGCUGGUGUCGCGUUUGAGGAGAACUGCGAGUGUGUUUGGCAUAUCCCCGUCAGGAUCCCAGCUACGAUGAGUGCUGCCCGGGAGUCUCACCCGCACGGGGU; value = 0.119 ratio
Strand = CAAUAUAAGGAUGAUAAUUUUGGAGAAGGAAAUGAUGGUGGAAUAUUAGAUGACAAACUUAUUAGUAAUAAUGAUGGCGGUAUCUUUGAUGAUCCCCCUGCCCUCUCUGAGGCAGGGGUG; value = 208 ratio
Strand = AGGAUCUGUCGCCUGAACCGCCUCCUGGUCCCUCGAAGCCAUCCCAGAGAACCAGUGGAUCUCCAAUCUAGUCCUGUCCCAUUGCUCCCUCCUGGCUCAGCCUUUCCCACUGCGGGGUUC; value = 1.01 ratio
Strand = GCAAAGGAUGAUGAGGCGGCAGCUGUUGCCCUUUCCUCUCUCGUUCAUGCUUUGGAUGAGUUAAACAUGGUCGCCAUCGUCCGAUAUGCUUAUGACAAAAGAUCUAAUCCUCAAGUUGGU; value = 0.204 ratio

Study 4
Target: UBE2U UBC core domain (UniProt Q5VVX9)
Method: yeast two-hybrid
Medium: yeast
Notes: mostly zero background
Reference: not given
Direction: higher = stronger interaction
Endpoint: lacZ reporter activity
B1: NEURL1 RING domain (UniProt O76050); chain VTPGLGQWSDECTICYEHAVDTVIYTCGHMCLCYACGLRLKKALHACCPICRRPIKDIIKT
B2: TRIM13 RING domain (UniProt O60858); chain MELLEEDLTCPICCSLFDDPRVLPCSHNFCKKCLEGILEGSVRNSLWRPAPFKCPTCRKETSATGINS
B3: TRIM40 RING domain (UniProt Q6P9F5); chain LQKDNQEEGVCPICQESLKEAVSTNCGHLFCRVCLTQHVEKASASGVFCCPLCRKPCSEEVLG
B4: TRAF5 RING domain (UniProt O00463); chain FVERLEERYKCAFCHSVLHNPHQTGCGHRFCQHCILSLRELNTVPICPVDKEVIKSQEVFK
B5: TRIM5 RING domain (UniProt Q9C035); chain LREVKLSPEGQKVDHCARHGEKLLLFCQEDGKVICWLCERSQEHRGHHTFLTEEVAREYQVKL
B6: RNF38 RING domain (UniProt Q9H0F5); chain PNNHQSEQTLCVVCMCDFESRQLLRVLPCNHEFHAKCVDKWLKANRTCPICRADASEVHRDS
Construct (chain): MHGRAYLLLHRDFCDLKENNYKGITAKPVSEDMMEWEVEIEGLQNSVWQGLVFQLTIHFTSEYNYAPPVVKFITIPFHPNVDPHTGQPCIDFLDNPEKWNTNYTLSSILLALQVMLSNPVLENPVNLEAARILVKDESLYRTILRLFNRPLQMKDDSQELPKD
Sequence = B1 (NEURL1 RING domain); value = 12900
Sequence = VEPSEENSKDCVVCQNGTVNWVLLPCRHTCLCDGCVKYFQQCPMCRQFVQESFALC (CGRRF1 RING domain (UniProt Q99675)); value = 16800
Sequence = B2 (TRIM13 RING domain); value = 0
Sequence = QVDKAVFHMQSVKCLKCQEQKRAVLPCQHAALCELCAEGSECPICQPGRAHTLQS (UNK RING domain (UniProt Q9C0B0)); value = 0
Sequence = B3 (TRIM40 RING domain); value = 0
Sequence = B4 (TRAF5 RING domain); value = 0
Sequence = B5 (TRIM5 RING domain); value = 0
Sequence = MPIRALCTICSDFFDHSRDVAAIHCGHTFHLQCLIQWFETAPSRTCPQCRIQVGKRTIIN (TRAIP RING domain (UniProt Q9BWF2)); value = 15100
Sequence = DHGAVGQEMCCPICCSEYVKGEVATELPCHHYFHKPCVSIWLQKSGTCPVCRCMFPPPL (PJA1 RING domain (UniProt Q8NG27)); value = 13300
Sequence = GAAPGPEAAECLVCSELALLVLFSPCQHRTVCEECARRMKKCIRCQVVVSKKLRPD (MIB2 RING domain (UniProt Q96AX9)); value = 14800
Sequence = B6 (RNF38 RING domain); value = 0
Sequence = FQGDVDEDLICPICSGVLEEPVQAPHCEHAFCNACITQWFSQQQTCPVDRSVVTVAHLRP (RNF41 RING domain (UniProt Q9H4P4)); value = 6190
Sequence = ASLPTSEEDLCPICYAHPISAVFQPCGHKSCKACINQHLMNNKDCFFCKTTIVSVEDWE (RNF123 RING domain (UniProt Q5XPI4)); value = 4890

Some of these lines once more (study 2):
Variant = V40M; value = 490 µM
Variant = S80W; value = 216 µM
Variant = G81P; value = 219 µM
Variant = Y115P; value = 0.0201 µM
Variant = C60K; value = 820 µM
Variant = E89W; value = 2.06 µM
Variant = G148I; value = 139 µM
Variant = Q51Y; value = 25.7 µM
